Experimental data from different studies.
Protocols differ between the studies behind these lines. Numbers after ± are the reported error.
Melanocortin receptor 4: Melanocortin receptor 4 (Mus musculus, UniProt P56450)
Sequence of UniProt P56450 (whole entry, looked up): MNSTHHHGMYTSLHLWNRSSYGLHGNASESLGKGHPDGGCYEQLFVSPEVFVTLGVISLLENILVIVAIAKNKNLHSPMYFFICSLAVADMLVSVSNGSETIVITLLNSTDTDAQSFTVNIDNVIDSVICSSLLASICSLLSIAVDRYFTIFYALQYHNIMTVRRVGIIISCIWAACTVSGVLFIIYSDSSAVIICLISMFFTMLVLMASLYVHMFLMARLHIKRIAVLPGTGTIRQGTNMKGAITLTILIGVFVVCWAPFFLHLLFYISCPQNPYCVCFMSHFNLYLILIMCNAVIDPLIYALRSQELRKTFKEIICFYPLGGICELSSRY
ATP2A2: ATP2A2 (Sus scrofa, UniProt P11607)
Sequence of UniProt P11607 (whole entry, looked up): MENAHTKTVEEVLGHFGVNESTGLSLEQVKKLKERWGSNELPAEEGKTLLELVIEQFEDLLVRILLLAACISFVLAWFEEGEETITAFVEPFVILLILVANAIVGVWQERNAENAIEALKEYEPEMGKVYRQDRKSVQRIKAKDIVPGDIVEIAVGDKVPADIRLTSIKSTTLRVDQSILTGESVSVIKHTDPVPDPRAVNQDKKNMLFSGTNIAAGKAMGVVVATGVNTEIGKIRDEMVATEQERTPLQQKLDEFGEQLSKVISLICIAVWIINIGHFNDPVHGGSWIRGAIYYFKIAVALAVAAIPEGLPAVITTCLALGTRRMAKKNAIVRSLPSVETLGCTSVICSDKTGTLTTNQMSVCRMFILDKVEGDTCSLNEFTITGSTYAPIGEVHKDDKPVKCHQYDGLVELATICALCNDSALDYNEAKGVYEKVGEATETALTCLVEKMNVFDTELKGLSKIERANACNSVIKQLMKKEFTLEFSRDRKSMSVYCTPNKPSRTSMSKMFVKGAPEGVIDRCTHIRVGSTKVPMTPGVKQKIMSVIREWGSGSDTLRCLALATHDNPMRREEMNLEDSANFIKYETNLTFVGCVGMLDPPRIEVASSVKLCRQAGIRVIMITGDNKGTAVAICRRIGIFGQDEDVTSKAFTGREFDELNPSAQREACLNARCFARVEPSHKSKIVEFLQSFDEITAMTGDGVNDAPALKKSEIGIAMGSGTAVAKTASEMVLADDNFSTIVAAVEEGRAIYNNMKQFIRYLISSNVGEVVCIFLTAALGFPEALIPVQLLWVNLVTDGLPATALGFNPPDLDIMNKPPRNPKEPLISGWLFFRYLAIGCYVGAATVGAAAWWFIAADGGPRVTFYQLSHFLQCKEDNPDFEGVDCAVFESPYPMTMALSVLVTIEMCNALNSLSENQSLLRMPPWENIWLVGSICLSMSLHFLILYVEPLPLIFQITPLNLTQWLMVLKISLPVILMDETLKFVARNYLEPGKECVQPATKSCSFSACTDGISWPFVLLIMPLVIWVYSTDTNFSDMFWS
DNA topoisomerase IB: DNA topoisomerase IB (Leishmania donovani, UniProt A0A3Q8IHS4+Q8WQM6)
GPBAR1: G-protein coupled bile acid receptor 1 (GPBAR1, Homo sapiens, UniProt Q8TDU6)
Sequence of UniProt Q8TDU6 (whole entry, looked up): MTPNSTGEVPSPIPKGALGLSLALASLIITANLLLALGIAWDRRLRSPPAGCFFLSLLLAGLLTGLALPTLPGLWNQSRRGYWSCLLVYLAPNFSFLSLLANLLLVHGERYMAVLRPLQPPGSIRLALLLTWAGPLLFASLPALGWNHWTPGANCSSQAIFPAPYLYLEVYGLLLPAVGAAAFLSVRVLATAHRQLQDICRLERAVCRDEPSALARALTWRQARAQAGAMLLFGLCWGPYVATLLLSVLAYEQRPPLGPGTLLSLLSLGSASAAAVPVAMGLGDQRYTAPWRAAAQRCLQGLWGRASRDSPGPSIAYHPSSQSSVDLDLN
P2RY4: P2Y purinoceptor 4 (P2RY4, Homo sapiens, UniProt P51582)
Sequence of UniProt P51582 (whole entry, looked up): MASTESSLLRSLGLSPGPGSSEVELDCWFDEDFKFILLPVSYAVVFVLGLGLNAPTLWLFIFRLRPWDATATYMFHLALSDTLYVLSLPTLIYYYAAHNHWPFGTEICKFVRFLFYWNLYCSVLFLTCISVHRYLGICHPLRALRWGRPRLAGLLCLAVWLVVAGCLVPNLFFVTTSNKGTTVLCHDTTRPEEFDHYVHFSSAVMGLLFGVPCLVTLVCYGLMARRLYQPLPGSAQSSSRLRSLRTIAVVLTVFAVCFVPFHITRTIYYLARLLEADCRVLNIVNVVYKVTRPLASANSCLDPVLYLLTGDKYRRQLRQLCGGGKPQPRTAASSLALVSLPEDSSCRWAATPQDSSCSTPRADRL
P2RY2: P2Y purinoceptor 2 (P2RY2, Homo sapiens, UniProt P41231)
Sequence of UniProt P41231 (whole entry, looked up): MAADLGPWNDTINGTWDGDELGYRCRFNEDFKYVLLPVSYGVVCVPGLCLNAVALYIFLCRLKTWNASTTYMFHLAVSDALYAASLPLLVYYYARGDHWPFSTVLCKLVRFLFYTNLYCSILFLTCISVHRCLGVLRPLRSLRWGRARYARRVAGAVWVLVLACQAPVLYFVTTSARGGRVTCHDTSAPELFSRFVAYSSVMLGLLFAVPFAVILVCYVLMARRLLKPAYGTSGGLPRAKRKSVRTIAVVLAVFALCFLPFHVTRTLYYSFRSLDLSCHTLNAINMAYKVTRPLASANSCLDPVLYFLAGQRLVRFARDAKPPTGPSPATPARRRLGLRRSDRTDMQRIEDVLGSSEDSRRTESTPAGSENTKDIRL
CHRM1: Muscarinic acetylcholine receptor M1 (CHRM1, Homo sapiens, UniProt P11229)
Sequence of UniProt P11229 (whole entry, looked up): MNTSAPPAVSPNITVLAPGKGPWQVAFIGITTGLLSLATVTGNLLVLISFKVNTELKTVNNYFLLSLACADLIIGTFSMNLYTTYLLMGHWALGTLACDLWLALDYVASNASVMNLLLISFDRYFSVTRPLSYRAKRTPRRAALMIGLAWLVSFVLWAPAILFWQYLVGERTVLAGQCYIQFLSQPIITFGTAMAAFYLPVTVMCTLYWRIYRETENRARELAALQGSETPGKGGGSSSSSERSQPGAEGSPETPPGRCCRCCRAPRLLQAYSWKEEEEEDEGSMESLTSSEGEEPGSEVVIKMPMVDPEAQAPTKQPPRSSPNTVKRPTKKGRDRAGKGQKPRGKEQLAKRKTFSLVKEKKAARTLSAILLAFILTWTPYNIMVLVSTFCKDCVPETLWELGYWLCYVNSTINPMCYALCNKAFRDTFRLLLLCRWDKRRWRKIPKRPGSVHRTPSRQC
Sequence of UniProt O15297 (whole entry, looked up): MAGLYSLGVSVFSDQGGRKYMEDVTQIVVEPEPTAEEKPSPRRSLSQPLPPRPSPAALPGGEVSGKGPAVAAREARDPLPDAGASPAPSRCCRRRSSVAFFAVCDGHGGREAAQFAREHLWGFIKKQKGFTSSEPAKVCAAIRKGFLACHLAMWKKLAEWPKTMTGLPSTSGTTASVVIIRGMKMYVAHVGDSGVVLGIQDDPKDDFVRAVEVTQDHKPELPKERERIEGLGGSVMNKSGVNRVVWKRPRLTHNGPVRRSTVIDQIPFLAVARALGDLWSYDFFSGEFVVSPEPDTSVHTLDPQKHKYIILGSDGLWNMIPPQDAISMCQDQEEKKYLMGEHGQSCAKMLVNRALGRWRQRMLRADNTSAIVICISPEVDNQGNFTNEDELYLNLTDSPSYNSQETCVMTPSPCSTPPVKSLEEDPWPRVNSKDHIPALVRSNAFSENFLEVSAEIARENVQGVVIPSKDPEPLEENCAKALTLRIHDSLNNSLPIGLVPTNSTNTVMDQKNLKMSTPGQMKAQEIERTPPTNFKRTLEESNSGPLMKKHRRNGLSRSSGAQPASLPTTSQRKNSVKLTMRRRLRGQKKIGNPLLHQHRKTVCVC
Sequence of UniProt Q13485 (whole entry, unmodified, looked up): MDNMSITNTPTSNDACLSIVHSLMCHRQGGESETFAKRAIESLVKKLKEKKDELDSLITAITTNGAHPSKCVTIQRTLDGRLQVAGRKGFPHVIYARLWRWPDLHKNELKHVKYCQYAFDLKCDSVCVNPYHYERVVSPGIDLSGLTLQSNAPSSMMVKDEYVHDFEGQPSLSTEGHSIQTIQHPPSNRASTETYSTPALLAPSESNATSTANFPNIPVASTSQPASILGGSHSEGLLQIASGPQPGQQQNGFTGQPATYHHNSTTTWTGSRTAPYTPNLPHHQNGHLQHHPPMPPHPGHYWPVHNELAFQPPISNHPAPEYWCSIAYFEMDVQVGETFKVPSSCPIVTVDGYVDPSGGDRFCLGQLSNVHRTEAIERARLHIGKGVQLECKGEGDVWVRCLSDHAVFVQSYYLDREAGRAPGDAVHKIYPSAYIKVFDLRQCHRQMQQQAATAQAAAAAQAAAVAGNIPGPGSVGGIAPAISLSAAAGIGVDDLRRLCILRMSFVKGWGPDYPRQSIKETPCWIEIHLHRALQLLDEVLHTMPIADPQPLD
Sequence of UniProt P43681 (whole entry, looked up): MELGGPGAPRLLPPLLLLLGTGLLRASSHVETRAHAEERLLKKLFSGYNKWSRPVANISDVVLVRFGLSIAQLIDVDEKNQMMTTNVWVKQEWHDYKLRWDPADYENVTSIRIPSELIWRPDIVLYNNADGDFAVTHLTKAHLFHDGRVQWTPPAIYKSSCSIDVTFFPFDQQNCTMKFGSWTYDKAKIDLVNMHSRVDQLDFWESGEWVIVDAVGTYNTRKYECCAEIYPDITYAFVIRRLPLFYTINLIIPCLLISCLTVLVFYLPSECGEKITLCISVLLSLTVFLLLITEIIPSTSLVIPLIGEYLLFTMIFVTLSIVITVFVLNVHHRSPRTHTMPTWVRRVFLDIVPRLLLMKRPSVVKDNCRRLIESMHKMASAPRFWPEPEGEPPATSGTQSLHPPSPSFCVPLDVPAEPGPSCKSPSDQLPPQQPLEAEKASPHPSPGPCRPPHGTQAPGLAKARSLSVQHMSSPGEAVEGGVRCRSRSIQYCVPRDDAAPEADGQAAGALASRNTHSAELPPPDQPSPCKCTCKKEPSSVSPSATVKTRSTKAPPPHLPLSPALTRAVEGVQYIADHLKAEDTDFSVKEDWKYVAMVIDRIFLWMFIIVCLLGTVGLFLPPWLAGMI

SMILES | target | assay | test system | setting | EC50
CSCC[C@H](NC(=O)[C@H](CO)NC(=O)[C@H](Cc1ccc(O)cc1)NC(=O)[C@H](CO)NC(C)=O)C(=O)N[C@@H](CCC(=O)O)C(=O)N[C@@H](Cc1c[nH]cn1)C(=O)N[C@@H](Cc1ccccc1)C(=O)N[C@@H](C)C(=O)N[C@@H](Cc1c[nH]c2ccccc12)C(=O)NCC(=O)N[C@@H](CCCCN)C(=O)N1CCC[C@H]1C(=O)N[C@H](C(N)=O)C(C)C | Melanocortin receptor 4 | – | – | – | 11.3 ± 7.33 µM
CCCN(Cc1ccccc1OC)C(=O)c1cccc(Br)c1 | ATP2A2 | Ca2+-ATPase activity, activator | porcine cardiac SR vesicles | maximal Ca2+ activity | 1 µM
CC(=O)N[C@@H](CO)C(=O)N[C@@H](Cc1ccc(O)cc1)C(=O)N[C@@H](CO)C(=O)N[C@@H](C)C(=O)N[C@@H](CCC(=O)O)C(=O)N[C@@H](Cc1c[nH]cn1)C(=O)N[C@H](Cc1ccccc1)C(=O)N[C@@H](CCCNC(=N)N)C(=O)N[C@@H](Cc1c[nH]c2ccccc12)C(=O)NCC(=O)N[C@@H](CCCCN)C(=O)N1CCC[C@H]1C(=O)N[C@H](C(N)=O)C(C)C | Melanocortin receptor 4 | – | – | – | 0.00039 ± 0.0001 µM
CCCN(Cc1ccccc1OC)C(=O)c1ccc(Cl)s1 | ATP2A2 | Ca2+-ATPase activity, activator | porcine cardiac SR vesicles | maximal Ca2+ activity | 5.1 ± 0.7 µM
CSCC[C@H](NC(=O)[C@H](CO)NC(=O)[C@H](C)NC(=O)[C@H](CO)NC(C)=O)C(=O)N[C@@H](CCC(=O)O)C(=O)N[C@@H](Cc1c[nH]cn1)C(=O)N[C@@H](Cc1ccccc1)C(=O)N[C@@H](CCCNC(=N)N)C(=O)N[C@@H](Cc1c[nH]c2ccccc12)C(=O)NCC(=O)N[C@@H](CCCCN)C(=O)N1CCC[C@H]1C(=O)N[C@H](C(N)=O)C(C)C | Melanocortin receptor 4 | – | – | – | 0.025 ± 0.0079 µM
CCCCCC(O)/C=C/C=O (stereo not shown) | Trpa1 (Mus musculus, UniProt Q8BLA8) | calcium signal, agonist, fluorescence | – | – | 19.9 µM
CCCCCCCCCC/C=C\CCCC(OC)C(=O)O (racemic) | DNA topoisomerase IB | DNA relaxation, inhibitor | – | 30 min, 37 °C | 41.3 ± 5.6 µM
CCCC[C@H](NC(=O)[C@H](CO)NC(=O)[C@H](Cc1ccc(O)cc1)NC(=O)[C@H](CO)NC(C)=O)C(=O)N[C@@H](CCC(=O)O)C(=O)N[C@@H](Cc1c[nH]cn1)C(=O)N[C@H](Cc1ccccc1)C(=O)N[C@@H](C)C(=O)N[C@@H](Cc1c[nH]c2ccccc12)C(=O)NCC(=O)N[C@@H](CCCCN)C(=O)N1CCC[C@H]1C(=O)N[C@H](C(N)=O)C(C)C | Melanocortin receptor 4 | – | – | – | 0.00456 ± 0.00057 µM
CCCN(Cc1ccccc1O)C(=O)c1cc(C)c(C)s1 | ATP2A2 | Ca2+-ATPase activity, activator | porcine cardiac SR vesicles | maximal Ca2+ activity | 6.6 ± 1.8 µM
C[C@H](CCC(=O)N[C@@H](Cc1ccccc1)C(=O)O)[C@H]1CC[C@H]2[C@@H]3[C@H](O)C[C@@H]4C[C@H](O)CC[C@]4(C)[C@H]3C[C@H](O)[C@]12C | GPBAR1 | G protein activation, agonist, BRET | – | – | 265 µM
CSCC[C@H](NC(=O)[C@H](CO)NC(=O)[C@H](Cc1ccc(O)cc1)NC(=O)[C@H](CO)NC(C)=O)C(=O)N[C@@H](CCC(=O)O)C(=O)N[C@@H](Cc1c[nH]cn1)C(=O)N[C@@H](Cc1ccccc1)C(=O)N[C@@H](CCCNC(=N)N)C(=O)N[C@@H](Cc1c[nH]c2ccccc12)C(=O)N[C@@H](C)C(=O)N[C@@H](CCCCN)C(=O)N1CCC[C@H]1C(=O)N[C@H](C(N)=O)C(C)C | Melanocortin receptor 4 | – | – | – | 0.074 ± 0.02 µM
C[C@H](CCC(=O)N[C@@H](Cc1ccccc1)C(=O)O)[C@H]1CC[C@H]2[C@@H]3[C@H](O)C[C@@H]4C[C@H](O)CC[C@]4(C)[C@H]3CC[C@]12C | GPBAR1 | G protein activation, agonist, BRET | – | – | 59.2 µM
O=c1ccn([C@@H]2O[C@H](COP(=O)(O)OP(=O)(O)OP(=O)(O)O[C@H]3O[C@H](CO)[C@@H](O)[C@H](O)[C@H]3O)[C@@H](O)[C@H]2O)c(=O)[nH]1 | P2RY4 | PLC activation, agonist | 1321N1, transfected | – | > 10 µM
O=S(=O)(O)CCN1CCN(CCO)CC1 | Neuronal acetylcholine receptor; alpha4/beta2, (α4)2(β2)3 stoichiometry (Homo sapiens, UniProt P17787+P43681) | ion current, potentiator, two-electrode voltage clamp | Xenopus oocytes | high-sensitivity α4β2 stoichiometry, with: 10 µM acetylcholine | 7.1 µM
O=C(Cn1c(=O)ccn([C@@H]2O[C@H](COP(=O)(O)OP(=O)(O)OP(=O)(O)O[C@H]3O[C@H](CO)[C@@H](O)[C@H](O)[C@H]3O)[C@@H](O)[C@H]2O)c1=O)c1ccccc1 | P2RY4 | PLC activation, agonist | 1321N1, transfected | – | > 10 µM
CCCCCCCCCC/C=C\CCCCC(=O)O | DNA topoisomerase IB | DNA relaxation, inhibitor | – | 30 min, 37 °C, with: supercoiled pHOT plasmid | 80.4 ± 9.29 µM
C/C=C1/[C@H](O[C@@H]2O[C@H](CO)[C@@H](O)[C@H](O)[C@H]2O)OC=C(C(=O)OC)[C@H]1CC(=O)OCCc1ccc(O)c(O)c1 | human 20S proteasome | chymotrypsin-like activity, activator | – | without PA28 | > 15 µM

SMILES | target | assay | test system | setting | EC50
CSCC[C@H](NC(=O)[C@H](C)NC(=O)[C@H](Cc1ccc(O)cc1)NC(=O)[C@H](CO)NC(C)=O)C(=O)N[C@@H](CCC(=O)O)C(=O)N[C@@H](Cc1c[nH]cn1)C(=O)N[C@@H](Cc1ccccc1)C(=O)N[C@@H](CCCNC(=N)N)C(=O)N[C@@H](Cc1c[nH]c2ccccc12)C(=O)NCC(=O)N[C@@H](CCCCN)C(=O)N1CCC[C@H]1C(=O)N[C@H](C(N)=O)C(C)C | Melanocortin receptor 4 | – | – | – | 0.054 ± 0.04 µM
BP(=O)(OC[C@H]1O[C@@H](n2cnc3c(N)ncnc32)[C@H](O)[C@@H]1O)OP(=O)(O)OP(=O)(O)OP(=O)(O)OC[C@H]1O[C@@H](n2cnc3c(N)ncnc32)[C@H](O)[C@@H]1O (stereo partly shown) | P2RY2 | calcium signal, agonist, fluorescence | – | – | 64.2 µM
CSCC[C@H](NC(=O)[C@H](CO)NC(=O)[C@H](Cc1ccc(O)cc1)NC(=O)[C@H](CO)NC(C)=O)C(=O)N[C@@H](CCC(=O)O)C(=O)N[C@@H](Cc1c[nH]cn1)C(=O)N[C@@H](C)C(=O)N[C@@H](CCCNC(=N)N)C(=O)N[C@@H](Cc1c[nH]c2ccccc12)C(=O)NCC(=O)N[C@@H](CCCCN)C(=O)N1CCC[C@H]1C(=O)N[C@H](C(N)=O)C(C)C | Melanocortin receptor 4 | – | – | – | 4.62 ± 0.39 µM
Nc1nc2ccc(CN[C@@H]3CO[C@H](C(c4ccc(F)cc4)c4ccc(F)cc4)C[C@H]3O)cc2s1 | KCNH2 (Homo sapiens, UniProt Q12809) | thallium flux, inhibitor | – | – | 14.8 ± 3.31 µM
BP(=O)(OC[C@H]1O[C@@H](n2ccc(=O)[nH]c2=O)[C@H](O)[C@@H]1O)OP(=O)(O)OP(=O)(O)OC[C@H]1O[C@@H](n2ccc(=O)[nH]c2=O)[C@H](O)[C@@H]1O (stereo partly shown) | P2RY2 | intracellular calcium rise, agonist | 1321N1 expressing human P2Y2 | 37 °C | > 100 µM
Cc1cc(C2=C(c3ccccc3)C3CC(S(=O)(=O)Oc4ccc(O)cc4)C2[S+]3[O-])ccc1O (stereo not shown) | ESR2 (Homo sapiens, UniProt Q92731) | cell-based | – | – | > 10 µM
CCCN(Cc1ccccc1OC)C(=O)c1ccc(F)c(Br)c1 | ATP2A2 | Ca2+-ATPase activity, activator | porcine cardiac SR vesicles | maximal Ca2+ activity | 4 ± 2.1 µM
Cn1cc(-c2ccc(CN3CCSc4ccccc43)c(F)c2)cn1 | CHRM1 | calcium response, positive allosteric modulator | HM1 cells | with: acetylcholine | > 30 µM
Cn1cc(-c2ccc(CN3C(=O)C4(CCN(C5CCCC5)C4)c4ccccc43)c(F)c2)c(C(F)(F)F)n1 (stereo not shown) | CHRM1 | acetylcholine response, positive allosteric modulator | cell-based | inactive up to 30 µM | > 30 µM
CSCC[C@H](NC(=O)[C@H](CO)NC(=O)[C@H](Cc1ccc(O)cc1)NC(=O)[C@H](CO)NC(C)=O)C(=O)N[C@@H](C)C(=O)N[C@@H](Cc1c[nH]cn1)C(=O)N[C@@H](Cc1ccccc1)C(=O)N[C@@H](CCCNC(=N)N)C(=O)N[C@@H](Cc1c[nH]c2ccccc12)C(=O)NCC(=O)N[C@@H](CCCCN)C(=O)N1CCC[C@H]1C(=O)N[C@H](C(N)=O)C(C)C | Melanocortin receptor 4 | – | – | – | 0.37 ± 0.025 µM
CCCN(Cc1ccccc1OC)C(=O)c1cc2ccccc2s1 | ATP2A2 | Ca2+-ATPase activity, activator | porcine cardiac SR vesicles | maximal Ca2+ activity | 5.8 ± 1.5 µM
Cc1ncc(Cl)cc1NCc1ccc(C(=O)N[C@@H](CC2CCCC2)C(=O)NC2CC2)s1 | PPM1D (Homo sapiens, UniProt O15297) | γH2AX level increase, inhibitor, ELISA | MCF7 | 75 min after irradiation, pretreated 1 h, with: 10 Gy ionizing radiation | 0.2 ± 0.12 µM
CC1=CC(=NOCC(=O)N2CCCCC2)Cc2cc(O)cc(O)c2C(=O)OCCC=CCC1 | HSP90AA1 (Homo sapiens, UniProt P07900) | binding, fluorescence polarisation competition | – | 20 nM HSP90, E/Z oxime mixture, with: fluorescein-labelled 17-AAG analogue | 0.046 µM
Cn1cc(C2=C(c3cn(CCCSC(=N)N)c4ccccc34)C(=O)NC2=O)c2ccccc21 | Mothers against decapentaplegic homolog 4, with SMAD3 (Homo sapiens, UniProt Q13485, R361H) | SMAD3 binding to SMAD4 R361H, GST pull-down | – | – | 2.1 ± 0.7 µM
CO/N=c1/ccn([C@@H]2O[C@H](COP(=O)(O)CP(=O)(O)O)[C@@H](O)[C@H]2O)c(=O)[nH]1 | P2RY4 | PLC activation, agonist | 1321N1, transfected | – | > 10 µM
C[C@H](CCC(=O)N[C@@H](Cc1ccc(O)cc1)C(=O)O)[C@H]1CC[C@H]2[C@@H]3[C@H](O)C[C@@H]4C[C@H](O)CC[C@]4(C)[C@H]3CC[C@]12C | GPBAR1 | G protein activation, agonist, BRET | – | – | 88.9 µM
Cn1cc(-c2ccc(CN3C(=O)C4(CCNC4)c4ccccc43)c(F)c2)cn1 (stereo not shown) | CHRM1 | acetylcholine response, positive allosteric modulator | cell-based | inactive up to 30 µM | > 30 µM

Repeated from above:
SMILES | target | assay | test system | setting | EC50
CCCC[C@H](NC(=O)[C@H](CO)NC(=O)[C@H](Cc1ccc(O)cc1)NC(=O)[C@H](CO)NC(C)=O)C(=O)N[C@@H](CCC(=O)O)C(=O)N[C@@H](Cc1c[nH]cn1)C(=O)N[C@H](Cc1ccccc1)C(=O)N[C@@H](C)C(=O)N[C@@H](Cc1c[nH]c2ccccc12)C(=O)NCC(=O)N[C@@H](CCCCN)C(=O)N1CCC[C@H]1C(=O)N[C@H](C(N)=O)C(C)C | Melanocortin receptor 4 | – | – | – | 0.00456 ± 0.00057 µM
CCCN(Cc1ccccc1O)C(=O)c1cc(C)c(C)s1 | ATP2A2 | Ca2+-ATPase activity, activator | porcine cardiac SR vesicles | maximal Ca2+ activity | 6.6 ± 1.8 µM
C[C@H](CCC(=O)N[C@@H](Cc1ccccc1)C(=O)O)[C@H]1CC[C@H]2[C@@H]3[C@H](O)C[C@@H]4C[C@H](O)CC[C@]4(C)[C@H]3C[C@H](O)[C@]12C | GPBAR1 | G protein activation, agonist, BRET | – | – | 265 µM
CSCC[C@H](NC(=O)[C@H](CO)NC(=O)[C@H](Cc1ccc(O)cc1)NC(=O)[C@H](CO)NC(C)=O)C(=O)N[C@@H](CCC(=O)O)C(=O)N[C@@H](Cc1c[nH]cn1)C(=O)N[C@@H](Cc1ccccc1)C(=O)N[C@@H](CCCNC(=N)N)C(=O)N[C@@H](Cc1c[nH]c2ccccc12)C(=O)N[C@@H](C)C(=O)N[C@@H](CCCCN)C(=O)N1CCC[C@H]1C(=O)N[C@H](C(N)=O)C(C)C | Melanocortin receptor 4 | – | – | – | 0.074 ± 0.02 µM
C[C@H](CCC(=O)N[C@@H](Cc1ccccc1)C(=O)O)[C@H]1CC[C@H]2[C@@H]3[C@H](O)C[C@@H]4C[C@H](O)CC[C@]4(C)[C@H]3CC[C@]12C | GPBAR1 | G protein activation, agonist, BRET | – | – | 59.2 µM
